Earlier results as cited in several papers.
± marks the error that the study gave.
Chain of UniProt P42866 (whole entry, looked up): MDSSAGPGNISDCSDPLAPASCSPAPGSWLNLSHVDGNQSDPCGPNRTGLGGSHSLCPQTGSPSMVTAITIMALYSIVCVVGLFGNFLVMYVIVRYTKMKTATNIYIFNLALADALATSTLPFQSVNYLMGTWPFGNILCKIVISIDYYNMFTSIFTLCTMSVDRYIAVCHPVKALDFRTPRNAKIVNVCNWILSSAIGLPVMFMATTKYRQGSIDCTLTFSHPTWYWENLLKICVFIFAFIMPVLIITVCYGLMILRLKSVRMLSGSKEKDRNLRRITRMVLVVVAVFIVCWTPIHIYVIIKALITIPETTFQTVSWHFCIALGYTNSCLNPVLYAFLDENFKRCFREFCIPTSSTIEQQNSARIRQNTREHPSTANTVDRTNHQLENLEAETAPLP
Chain of UniProt P41143 (whole entry, looked up): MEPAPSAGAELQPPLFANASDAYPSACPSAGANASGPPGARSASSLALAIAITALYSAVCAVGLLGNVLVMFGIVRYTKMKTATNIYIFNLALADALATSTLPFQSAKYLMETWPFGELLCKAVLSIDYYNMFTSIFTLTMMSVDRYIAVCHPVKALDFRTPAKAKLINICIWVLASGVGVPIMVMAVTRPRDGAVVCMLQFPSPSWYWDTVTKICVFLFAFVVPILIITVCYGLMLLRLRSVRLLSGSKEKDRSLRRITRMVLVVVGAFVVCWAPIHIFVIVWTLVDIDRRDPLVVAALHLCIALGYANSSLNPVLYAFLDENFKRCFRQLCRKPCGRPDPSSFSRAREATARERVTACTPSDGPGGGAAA

Compound	tested on	assay	test system	setting	how to read	measurement	value
[O-][N+]1=C(c2ccc(Cl)cc2)C2=NCCCN2c2ccccc21			octanol/PBS			logP	0.836
CC[C@H](C)[C@H](NC(=O)[C@H](N)Cc1ccc(O)cc1)C(=O)N[C@H]1CSSC[C@@H](C(=O)N(C)[C@H](C(N)=O)[C@@H](C)CC)NC(=O)[C@H](CCCNC(=N)N)NC(=O)[C@H](Cc2c[nH]cn2)NC(=O)[C@H](C)NC(=O)CN(C)C(=O)[C@H](Cc2c[nH]c3ccccc23)NC(=O)[C@H](CC(=O)O)NC(=O)[C@H](CCC(N)=O)NC(=O)[C@H](Cc2cn(C)c3ccccc23)NC(=O)[C@H](C(C)C)NC1=O						plasma half-life	12 h
COC[C@@H](NC(C)=O)C(=O)NCc1ccc(-c2cccc(F)c2)cc1			rat	oral, maximal electroshock seizure test		protective index	> 210
CC(C)[C@@H](CN1CC[C@@](C)(c2cccc(C(N)=O)c2)[C@@H](C)C1)NC(=O)[C@H]1Cc2ccc(O)cc2CN1	Delta-type opioid receptor (OPRD1, Homo sapiens, UniProt P41143)	antagonist		together with: DPDPE		Ke	478 ± 75 nM
NC(CNC(CNC(CC(=O)O)C(=O)O)C(=O)O)C(=O)O (stereo not shown)			mouse	intravenous		LD50	160 mg/kg
O=C(N[C@H]1CC[C@@]2(O)[C@H]3Cc4ccc(O)c5c4[C@@]2(CCN3CC2CC2)[C@H]1O5)c1cccc2ccoc12	Mu-type opioid receptor (Oprm1, Mus musculus, UniProt P42866)	agonist			reference: DAMGO	Emax	12.9%
CC1=C(C)C(=O)OC(C(C)(O)C2(O)CCC3(O)C4CC5OC56C(O)C=CC(=O)C6(C)C4CCC32C)C1 (stereo not shown)	Hep G2	cell growth				IC50	1060 nM
OC1C=Cc2c(cc3ccc4cccc5c6ccccc6c2c3c45)C1O (stereo not shown)			mouse liver microsomes	phase I metabolism		intrinsic clearance	11600 µL/min/mg
COC[C@@H](NC(C)=O)C(=O)NCc1ccc(OCc2ccc(F)cc2)cc1		behavioural toxicity	rat	oral		TD50	> 500 mg/kg
CC(C)C[C@H]1NC(=O)[C@H](NC(=O)CN)CSSC[C@H]2NC(=O)[C@H]3CSSC[C@H](C(=O)N[C@H](CC(N)=O)C(=O)N[C@H](Cc4ccccc4)C(=O)N[C@H](CO)C(=O)N[C@H](Cc4ccccc4)C(N)=O)NC(=O)[C@@H](CC(C)C)NC(=O)[C@@H](CCCCN)NC(=O)[C@@H](Cc4ccccc4)NC(=O)[C@@H](CC(C)C)NC(=O)[C@@H](CCCCN)NC(=O)[C@@H](CO)NC(=O)[C@@H](CSSC[C@@H](NC(=O)[C@@H](CCCCN)NC(=O)[C@@H](Cc4c[nH]c5ccccc45)NC(=O)[C@@H](Cc4c[nH]c5ccccc45)NC(=O)[C@@H](Cc4ccccc4)NC(=O)[C@@H](CCC(=O)O)NC1=O)C(=O)N[C@H](CC(N)=O)C(=O)N1CCC[C@@H]1C(=O)N[C@H](CC(N)=O)C(=O)N[C@H](CC(=O)O)C(=O)N[C@H](CC(=O)O)C(=O)N[C@H](CCCCN)C(=O)N3)NC(=O)[C@@H](CCCCN)NC(=O)[C@@H](CC(C)C)NC(=O)[C@@H](CCCCN)NC(=O)[C@H]1CCCN1C(=O)[C@@H](CCCNC(=N)N)NC2=O			C57BL/6J mice, cardiac muscle	subcutaneous, 50 mg/kg, within 24 h		concentration	~1000 nM
CCCCCCCC(=O)OC[C@H](NC(=O)[C@H](CO)NC(=O)CN)C(=O)N[C@@H](Cc1ccccc1)C(=O)N[C@@H](CC(C)C)C(=O)N[C@@H](CO)C(=O)N1CCC[C@H]1C(=O)N[C@@H](CCC(=O)O)C(=O)N[C@@H](Cc1cnc[nH]1)C(=O)N[C@@H](CCC(N)=O)C(=O)N[C@@H](CCCNC(=N)N)C(=O)N[C@H](C(=O)N[C@@H](CCC(N)=O)C(=O)N[C@@H](CCC(N)=O)C(=O)N[C@@H](CCCNC(=N)N)C(=O)N[C@@H](CCCCN)C(=O)N[C@@H](CCC(=O)O)C(=O)N[C@@H](CO)C(=O)N[C@@H](CCCCN)C(=O)N[C@@H](CCCCN)C(=O)N1CCC[C@H]1C(=O)N1CCC[C@H]1C(=O)N[C@@H](C)C(=O)N[C@@H](CCCCN)C(=O)N[C@@H](CC(C)C)C(=O)N[C@@H](CCC(N)=O)C(=O)N1CCC[C@H]1C(=O)N[C@@H](CCCNC(=N)N)C(=O)O)C(C)C		refers to: total ghrelin		intravenous infusion, 5 pmol/kg/min, 180 min		initial half-life	0.403 ± 0.0417 h
CC1=CC(C)=[N+]2C1=Cc1ccc(CCC(=O)NCC3C[NH][Pt]([Cl])([Cl])[NH]3)n1[B-]2(F)F (stereo not shown)			octanol/water			logP	0.58
CC1(O)CC23CC(O)C4(O)C(C5OC5C4(C)C)C(C)(O)C2CCC1C3O (stereo not shown)			mouse	oral		oral bioavailability	73.6%
CC[C@H](C)C(=O)N1CCC(NC(=O)Nc2ccc(OC(F)(F)F)c(F)c2)CC1			rat	oral, 28 d		NOAEL	5 mg/kg/day
CCCC(C(=O)c1ccccc1)N1CCCC1 (stereo not shown)			human	concentration not given		duration of psychosis	≤ 6 days
CN[C@H](CC(C)C)C(=O)N[C@H]1C(=O)N[C@@H](CC(N)=O)C(=O)N[C@H]2C(=O)N[C@H]3C(=O)N[C@H](C(=O)N[C@H](C(=O)O)c4cc(O)cc(O)c4-c4cc3ccc4O)[C@H](O)c3ccc(c(Cl)c3)Oc3cc2cc(c3O[C@@H]2O[C@H](CO)[C@@H](O)[C@H](O)[C@H]2O[C@H]2C[C@](C)(NCc3ccc(-c4ccc(Cl)cc4)cc3)[C@H](O)[C@H](C)O2)Oc2ccc(cc2Cl)[C@H]1O			mouse	intravenous, 10 mg/kg		clearance	1.23 mL/min/kg
COC(=O)CC[C@@H](C)C1CCC2C3C(CC[C@@]21C)[C@@]1(C)CC[C@@H](n2cc(CO[C@H]4O[C@@H]5O[C@@]6(C)CCC7[C@H](C)CC[C@@H]([C@H]4C)[C@]75OO6)nn2)CC1C[C@@H]3O (stereo partly shown)			cell culture medium	up to 24 h		stability	stable

Compound	tested on	assay	test system	setting	how to read	measurement	value
NCCCC[C@H](NC(=O)[C@H](Cc1ccccc1)NC(=O)[C@@H](CCCN=C(N)N)NC(=O)[C@@H](N)Cc1ccc(O)cc1)C(N)=O			rat, Sprague-Dawley, brain			brain uptake	0.02 % injected dose/g
N=C(N)NCCC[C@@H]1NC(=O)[C@H](CCCCNC(=O)CCOCCOCCOCCOCCNC(=O)CC[C@H](NC(=O)CCOCCOCCOCCOCCNC(=O)c2ccc(NN)nc2)C(=O)NCCOCCOCCOCCOCCC(=O)NCCCC[C@@H]2NC(=O)[C@@H](Cc3ccccc3)NC(=O)[C@H](CC(=O)O)NC(=O)CNC(=O)[C@H](CCCNC(=N)N)NC2=O)NC(=O)[C@@H](Cc2ccccc2)NC(=O)[C@H](CC(=O)O)NC(=O)CNC1=O [technetium-99m labelled]			athymic nude mouse, feces	dose not given, 2 h		intact compound	70%
CC1=C(C)C(=O)OC(C(C)(O)C2(O)CCC3(O)C4CC5OC56CC=CC(=O)C6(C)C4CCC32C)C1 (stereo not shown)	Hep3B	cell growth				IC50	3640 nM
C=C(C)[C@@H]1CCC(C(=O)O)=C[C@H]1c1c(O)cc(CCCCC)cc1O			healthy volunteers	dose not given, steady state, together with: stiripentol		decrease in AUC(0-tau)	13%
CC(C)[C@@H]1CC[C@@H](C)C[C@H]1C(=O)Nc1ccc(CC#N)cc1			rat	diet, 90 days		NOAEL	100 mg/kg/day
CSCC[C@H](NC(=O)[C@H](CC(C)C)NC(=O)CNC(=O)[C@H](Cc1ccccc1)NC(=O)[C@H](Cc1ccccc1)NC(=O)[C@H](CCC(N)=O)NC(=O)[C@H](CCC(N)=O)NC(=O)[C@@H]1CCCN1C(=O)[C@H](CCCCN)NC(=O)[C@@H]1CCCN1C(=O)[C@@H](N)CCCN=C(N)N)C(N)=O			diabetic mice			half-life	< 0.0167 h
CN1c2ccc(OC(=O)Nc3ccccc3)cc2[C@@]2(C)CCNC12 (single isomer, unassigned; (+))			human, plasma	40 mg Posiphen		Cmax	25.6 ng/mL
CNC1C(O)C(NC)C2OC3(O)C(OC(C)C[C@H]3NC(=O)Cc3cscn3)OC2C1O.Cl.Cl (stereo partly shown)			human liver microsomes			half-life	18.5 h
C=C(C)C12OC3(c4ccccc4)OC1C1C4OC4(CO)C(O)C4(O)C(=O)C(C)=CC4C1(O3)C(C)C2OC(=O)c1ccccc1 (stereo not shown)			mouse 22Rv1 and PDX models	intraperitoneal, 0.5 mg/kg 5 times weekly, end of dosing		body weight loss	~9%
CN1CCN([C@@H](c2ccccc2)c2ccc(Cl)cc2)CC1			mouse, liver	intraperitoneal, 50 mg/kg		half-life	2 h
O=C(CO)COP(=O)(O)O			water	carbon acid		pKa	~18
COc1ccc(CCN2CCN(C/C=C/[125I])CC2)cc1OC		refers to: clearance	mouse, whole brain			half-life	0.6 h
O=C(OCC[18F])C1C2CCC(CC1c1ccc(/C=C\I)cc1)N2 (stereo not shown)	SERT	microPET	anaesthetised, midbrain			time to peak uptake	95 min
CC[C@H](C)[C@H](NC(=O)[C@H](CCCCN)NC(=O)[C@H](CCCCN)NC(=O)[C@H](Cc1ccccc1)NC(=O)[C@H](CC(C)C)NC(=O)[C@H](CCCCN)NC(=O)[C@H](Cc1c[nH]c2ccccc12)NC(=O)[C@H](CCCCN)NC(C)=O)C(=O)NCC(=O)N[C@@H](C)C(=O)N[C@H](C(=O)N[C@@H](CC(C)C)C(=O)N[C@@H](CCCCN)C(=O)N[C@H](C(=O)N[C@@H](CC(C)C)C(N)=O)C(C)C)C(C)C			trifluoroethanol			alpha-helical content	~85%
Br.Br.Br.CNC1C(O)C(NC)C2OC3(O)C(OC(C)C[C@H]3NC(=O)Cc3ccccn3)OC2C1O (stereo partly shown)			human liver microsomes			half-life	> 10 h
CNC(=O)N[C@H]1CC[C@H](CCN2CCN(c3cccc(Cl)c3Cl)CC2)CC1			human, plasma			t1/2	24 to 48 h
C=C(C)[C@@H]1CCC(CO)=C[C@H]1c1c(O)cc(CCCCC)cc1O			healthy volunteers	dose not given, steady state, together with: stiripentol		decrease in Cmax	29%

Some of these lines once more:
Compound	tested on	assay	test system	setting	how to read	measurement	value
CC[C@H](C)[C@H](NC(=O)[C@H](CCCCN)NC(=O)[C@H](CCCCN)NC(=O)[C@H](Cc1ccccc1)NC(=O)[C@H](CC(C)C)NC(=O)[C@H](CCCCN)NC(=O)[C@H](Cc1c[nH]c2ccccc12)NC(=O)[C@H](CCCCN)NC(C)=O)C(=O)NCC(=O)N[C@@H](C)C(=O)N[C@H](C(=O)N[C@@H](CC(C)C)C(=O)N[C@@H](CCCCN)C(=O)N[C@H](C(=O)N[C@@H](CC(C)C)C(N)=O)C(C)C)C(C)C			trifluoroethanol			alpha-helical content	~85%
Br.Br.Br.CNC1C(O)C(NC)C2OC3(O)C(OC(C)C[C@H]3NC(=O)Cc3ccccn3)OC2C1O (stereo partly shown)			human liver microsomes			half-life	> 10 h
CNC(=O)N[C@H]1CC[C@H](CCN2CCN(c3cccc(Cl)c3Cl)CC2)CC1			human, plasma			t1/2	24 to 48 h
C=C(C)[C@@H]1CCC(CO)=C[C@H]1c1c(O)cc(CCCCC)cc1O			healthy volunteers	dose not given, steady state, together with: stiripentol		decrease in Cmax	29%
